Published values gathered from unrelated publications.
Each line is one published result; not all experiments were run side by side. “And” joins repeats or separate records; there may be more than shown. ± gives the spread as reported.
USP5: Ubiquitin carboxyl-terminal hydrolase 5 (USP5, Homo sapiens, UniProt P45974)
Lysophospholipase-like protein 1: Lysophospholipase-like protein 1 (Mus musculus, UniProt Q3UFF7)
CASP4: Caspase-4 (CASP4, Homo sapiens, UniProt P49662)
CASP9: Caspase-9 (CASP9, Homo sapiens, UniProt P55211)

CCOc1ccc(S(=O)(=O)N=C2CC(Sc3nc[nH]n3)C(=O)c3ccccc32)cc1 (stereo not drawn)  inhibition (USP5; enzyme activity, inhibitor; 17 µM): 84%
COC(=O)[C@@]1(Cc2ccccc2)C=C(C(=O)OC(C)(C)C)C(=O)CC1  fraction bound (MAPK14 (Homo sapiens, UniProt Q16539, C162A); peptide binding, fluorescence polarization; 125 µM): 0.349
C=CC(=O)N1CCCC(n2c(=O)c3ncccc3n(Cc3ccc(Oc4ccccc4)cc3)c2=O)C1 (stereo not drawn)  melting temperature (Putative protein-lysine deacylase ABHD14B (Homo sapiens, UniProt Q96IU4); thermal proteome profiling; replicate 1): 50.2 °C
CC(C)[C@@H]1NC(=O)[C@H](Cc2ccccc2)NC(=O)CSC[C@@H](C(N)=O)NC(=O)[C@H](CCC(=O)O)NC(=O)[C@H](CO)NC(=O)[C@H](Cc2c[nH]c3cccc(Cl)c23)NC(=O)[C@H](C2CCCCC2)NC(=O)[C@H](C(C)C)NC(=O)[C@H](Cc2ccc(O)cc2)NC(=O)[C@H](CC(=O)O)NC(=O)[C@H](Cc2c[nH]c3ccccc23)NC(=O)[C@H](Cc2ccc(N)nc2)NC(=O)[C@H](Cc2c[nH]c3ccc(Cl)cc23)NC(=O)[C@H](CCC(=O)O)NC1=O  remaining activity (Interleukin-1 receptor-like 2 (IL1RL2, Homo sapiens, UniProt Q9HB29); reporter gene (SEAP), inhibitor, HEK-Blue IL-36R reporter; HEK-Blue IL-36R cells; 0.046 µM, 6 h, together with: IL-36β 1 ng/mL): 84.5%
CC[C@H](C)[C@H](NC(=O)[C@H](Cc1ccccc1)NC(=O)[C@H](CCC(=O)O)NC(=O)[C@H](CCCCN)NC(=O)[C@H](C)NC(=O)[C@H](C)NC(=O)[C@H](CCC(N)=O)NC(=O)CNC(=O)[C@H](CCC(=O)O)NC(=O)[C@H](CC(C)C)NC(=O)[C@H](Cc1ccc(O)cc1)NC(=O)C[C@@H](NC(=O)[C@H](CO)NC(=O)C(C)(C)NC(=O)[C@H](CC(=O)O)NC(=O)[C@H](CO)NC(=O)[C@@H](NC(=O)[C@H](Cc1ccccc1)NC(=O)[C@@H](NC(=O)CNC(=O)[C@H](CCC(=O)O)NC(=O)[C@H](C)NC(=O)[C@@H](N)Cc1c[nH]cn1)[C@@H](C)O)[C@@H](C)O)C(C)C)C(=O)N[C@@H](C)C(=O)N[C@@H](Cc1c[nH]c2ccccc12)C(=O)N[C@@H](CC(C)C)C(=O)N[C@H](C(=O)N[C@@H](CCCCN)C(=O)NCC(=O)N[C@@H](CCCNC(=N)N)C(N)=O)C(C)C  efficacy (GLP1R (Homo sapiens, UniProt P43220); cAMP production, agonist, GloSensor luminescence; HEK293; 15 min; relative to: GLP-1): 102 ± 3%
CC(=O)c1cccc(S(=O)(=O)n2nc(SCc3ccc(Cl)cc3)nc2N)c1  probe labeling increase (Lysophospholipase-like protein 1; enzyme activity, activator, gel-based ABPP; purified protein; concentration not given, together with: FP-rhodamine; relative to: DMSO): 2.4 fold
CC(C)C[C@H](NC(=O)[C@@H](NC(=O)[C@H](Cc1ccccc1)NC(=O)c1ccc(C(C)(C)O)cc1)C(C)C)C(=O)N[C@@H](CCCCN(C)C1CC2CCC1C2)C(=O)N[C@@H](CO)C(N)=O (stereo partly drawn)  selectivity ratio (Chromobox protein homolog 8 (Homo sapiens, UniProt Q9HC52); TR-FRET displacement; relative to: IC50 CBX7 over IC50 CBX8): 20
O=C1c2sc(-c3ccc(N4CCC(CO)CC4)nc3F)nc2CCN1c1cccnc1  specific binding (TAR DNA-binding protein 43, aggregated (TARDBP, Homo sapiens, UniProt Q13148); radioligand binding; control brain sarkosyl-insoluble extract; 72.89 nM): 0.028 nM
Cc1cc(O)nc(O)c1C(=O)O  inhibition (USP5; enzyme activity, inhibitor; 17 µM): 75%
CC(=O)N[C@H](C(=O)N[C@@H](CCC(=O)O)C(=O)N[C@@H](CCCCN(C)C)C(=O)N[C@@H](CC(=O)O)C(=O)COC(=O)c1c(C)cccc1C)C(C)C  kinact/KI (CASP4; enzyme activity, inhibitor): 9600 M⁻¹ s⁻¹
CCCCCC=CC=C1C(=O)C=CC1CC=CCCCC(=O)O (stereo not drawn)  isoTOP-ABPP competition ratio (Glyoxylate reductase/hydroxypyruvate reductase (Homo sapiens, UniProt Q9UBQ7); competitive isoTOP-ABPP, measured: GRHPR cysteine peptide; Ramos soluble proteome; 100 µM, together with: iodoacetamide probe; relative to: DMSO over compound-treated, higher = stronger cysteine blockade): 1.5
CC(=O)N[C@@H](CC(C)C)C(=O)N[C@@H](CCC(=O)O)C(=O)N[C@H](C(=O)N[C@@H](CC(=O)O)C(=O)COC(=O)c1c(C)cccc1C)C(C)C  kinact/KI (CASP4; enzyme activity, inhibitor): 6400 M⁻¹ s⁻¹
CC(=O)N[C@@H](CCCCN)C(=O)N[C@H](C(=O)N[C@@H](Cc1ccc(O)cc1)C(=O)N[C@@H](Cc1ccc(O)cc1)C(=O)N[C@@H](CCCNC(=N)N)C(=O)N[C@@H](Cc1ccc(O)cc1)C(=O)N[C@@H](CC(N)=O)C(=O)NCC(=O)N[C@@H](CCCCN)C(=O)N[C@H](C(=O)N[C@@H](Cc1c[nH]c2ccccc12)C(=O)N[C@@H](Cc1c[nH]c2ccccc12)C(=O)N[C@@H](CCCNC(=N)N)C(=O)O)C(C)C)C(C)C  entropy change (Insulin (INS, Bos taurus, UniProt P01317); binding, isothermal titration calorimetry; concentration not given, pH 2.6, 25 °C): 28 cal/mol/K
CN(Cc1cc(C2CC2)on1)C(=O)c1cccc(-c2ccc3c(c2)CCO3)c1  reaction rate (ACSS2 (Homo sapiens, UniProt Q9NR19); enzyme activity, inhibitor, coupled pyrophosphate; 50 µM; higher is more activity): 0.00328 a.u.
CC(=O)N[C@@H](CC(C)C)C(=O)N[C@H](C(=O)N[C@@H](Cc1c[nH]cn1)C(=O)N[C@@H](CC(=O)O)C(=O)COC(=O)c1c(C)cccc1C)C(C)(C)C  kinact/KI (CASP9; enzyme activity, inhibitor): 37800 M⁻¹ s⁻¹
CCN(CC)C(CO)c1cccc2c(C)c(C)oc12 (stereo not drawn)  fold change (LPAR1 (Homo sapiens, UniProt Q92633, W271A); G-protein dissociation, agonist, NanoBiT; HEK-293T; 10 pM, W271A mutant; relative to: baseline luminescence): 0.998 and 1.02 and 1.01 and 0.993
Fc1ccc(Nc2nc(NC3CCCCC3)c3cc(C(F)(F)F)ccc3n2)cc1F  maximal inhibition (ADRB2 (Homo sapiens, UniProt P07550, G162A); β-arrestin2 recruitment, antagonist, BRET; mutant G162A; relative to: isoprenaline maximal response): 8.6%
O=C1N/C(=N\c2ccc(Cl)cc2C(=O)O)S/C1=C\c1ccccc1  reaction rate (DHODH (Homo sapiens, UniProt Q02127); enzyme activity, inhibitor, DCIP reduction; 0.5 µM; higher = more activity): -25.4 a.u.
CC[C@H](C)[C@@H]1NC(=O)[C@H](Cc2ccccc2)NC(=O)[C@H](CCC(=O)O)NC(=O)[C@H](CCCNC(=N)N)NC(=O)CNC(=O)[C@@H](NC(=O)[C@H](CC(C)C)NC(=O)[C@H](CCCNC(=N)N)NC(=O)[C@@H](NC(=O)CNC(=O)[C@H](Cc2ccc(O)cc2)NC(=O)[C@@H]2CCCN2C(=O)[C@H](C)NC(=O)[C@H](C)NC(=O)[C@@H](N)CCCNC(=N)N)C(C)C)CSSC[C@@H]2NC(=O)[C@@H](NC(=O)[C@H](CO)NC(=O)[C@H](CO)NC(=O)[C@H](CO)NC(=O)[C@H](CC(C)C)NC(=O)CNC(=O)[C@H](C)NC(=O)[C@H](CC(C)C)NC(=O)[C@@H](NC(=O)[C@@H](N)CC(=O)O)C(C)C)CSSC[C@H](NC(=O)CNC(=O)[C@H](Cc3c[nH]c4ccccc34)NC(=O)[C@H](CCCCN)NC2=O)C(=O)N[C@@H](CO)C(=O)N[C@@H](CCCCN)C(=O)N[C@@H](CO)C(=O)N[C@@H](CCC(=O)O)C(=O)N[C@@H]([C@@H](C)CC)C(=O)N[C@@H](CO)C(=O)N[C@@H](CO)C(=O)N[C@@H](CC(C)C)C(=O)N[C@H](C(=O)O)CSSC[C@@H](C(=O)NCC(=O)NCC(=O)N[C@@H](CO)C(=O)N[C@@H](CCCNC(=N)N)C(=O)N[C@@H](Cc2c[nH]c3ccccc23)C(=O)O)NC(=O)[C@H]([C@@H](C)O)NC(=O)[C@H](Cc2ccccc2)NC(=O)[C@H]([C@@H](C)CC)NC(=O)[C@H](C(C)C)NC(=O)[C@H](C)NC(=O)[C@H](CCCNC(=N)N)NC1=O  Δemax (RXFP4 (Homo sapiens, UniProt Q8TDU9, E100A); E100A mutant; relative to: wild type): inactive
[3H]C([3H])([3H])OC1(C2=NCCN2)COc2ccccc2O1 (stereo not drawn)  Bmax (Alpha-2C adrenergic receptor, Δ37-45 deletion (Mus musculus, UniProt Q01337, del37-45); radioligand binding; HEK293 membranes; α2c(Δ37–45)-AR mutant): 1.23 ± 0.09 pmol/mg protein
O=C(Nc1ccc(N2CCOCC2)c2nonc12)c1cccs1  inhibition (USP5; enzyme activity, inhibitor; 17 µM): 55%
CN(C)c1ccc2c(c1)C(=O)N(Cc1ccc(S(N)(=O)=O)cc1)C2=O  emission maximum (CA2 (Homo sapiens, UniProt P00918); binding): 537 nm
CC(=O)N1C[C@H](O)C[C@H]1C(=O)N[C@H](C(=O)N[C@@H](CO)C(=O)N[C@@H](CC(=O)O)C(=O)COC(=O)c1c(C)cccc1C)C(C)(C)C  kinact/KI (CASP9; enzyme activity, inhibitor): 65900 M⁻¹ s⁻¹
CC(=O)N[C@@H](CCCNC(=N)N)C(=O)N[C@H](C(=O)N[C@@H](CCCCN)C(=O)N[C@@H](CO)C(=O)N[C@@H](CCCNC(=N)N)C(=O)N[C@H](C(=O)N[C@@H](Cc1c[nH]c2ccccc12)C(=O)N[C@@H](C)C(=O)N[C@H](C(N)=O)C(C)C)[C@@H](C)OP(=O)(O)O)[C@@H](C)O  koff (14-3-3 protein epsilon (Homo sapiens, UniProt P62258); binding, SPR): 0.196 s⁻¹
CCCCCC(O)/C=C/C=O (stereo not drawn)  isoTOP-ABPP competition ratio (Large ribosomal subunit protein eL24 (Homo sapiens, UniProt P83731); competitive isoTOP-ABPP; proteome, soluble, MDA-MB-231; 100 µM, 60 min, together with: iodoacetamide probe; relative to: DMSO over compound-treated, higher = stronger cysteine blockade): 1.3
CC(C)(C(=O)N1CCC(Nc2nc3c(c(=O)[nH]2)CCCC3)CC1)c1ccc(Cl)cc1  Emax (MRGPRD (Homo sapiens, UniProt Q8TDS7); miniGq recruitment, agonist, BRET; HEK293T; wild type; relative to: wild type): 102 ± 3.1%
CC(C)Oc1cc(Cl)ccc1CNc1cc(-c2ccccc2)nc2ncnn12  cAMP luminescence (GPR3 (Homo sapiens, UniProt P46089, Q215A); cAMP level, cAMP GloSensor; 1 nM; higher = more cAMP): 32500 a.u. and 45000 a.u. and 42600 a.u. and 38500 a.u. and 38700 a.u.
CC(=O)N[C@@H](CC(=O)O)C(=O)N[C@@H](Cc1ccccc1)C(=O)N[C@H](C(=O)N[C@@H](CC(=O)O)C(=O)COC(=O)c1c(C)cccc1C)C(C)(C)C  kinact/KI (CASP4; enzyme activity, inhibitor): 200 M⁻¹ s⁻¹
N[C@H]1CC[C@H](Nc2nccc(-c3cccnc3Oc3ccc(NC(=O)NC4CC4)c4ccccc34)n2)CC1  log2 LFQ intensity (GSTP1 (Homo sapiens, UniProt P09211); kinobead competition pulldown; HEK293/HCT116 lysate mixture; 10 µM, 1 h, 4 °C; lower = stronger competition): 23.4 and 24 and 19.4 and 23.3
CC(=O)N[C@@H](C(=O)N[C@@H](CCCC(=O)O)C(=O)N[C@@H](CCC1CCCCC1)C(=O)N[C@@H](CC(=O)O)C(=O)COC(=O)c1c(C)cccc1C)C1CCCCC1  kobs/[I] (CASP4; inhibitor; recombinant enzyme): 1200 M⁻¹ s⁻¹
Cc1[nH]c(C)c(S(=O)(=O)Nc2cccc(Cl)c2)c1C(=O)N1CCCC1  Imax (DRD3 (Homo sapiens, UniProt P35462); β-arrestin recruitment, agonist, PathHunter; relative to: dopamine): 91 ± 5.2%
O=C(NCc1ccccc1)c1cccnc1N1CCCC1  inhibition (USP5; enzyme activity, inhibitor; 17 µM): 3%
CC(=O)N[C@@H](CCC(N)=O)C(=O)N[C@@H](CC(C)C)C(=O)N[C@@H](CCCC(=O)O)C(=O)N1CCC[C@H]1C(=O)N[C@@H](CC(=O)O)C(=O)COC(=O)c1c(C)cccc1C  kinact/KI (CASP4; enzyme activity, inhibitor): 71000 M⁻¹ s⁻¹
Cc1cc(C)cc(COc2cc3c(cc2OCc2cc(C)cc(C)c2)C2CC(O)(Cc4cn(CCOCCOCCNC(=O)CCCCC5SCC6NC(=O)NC65)nn4)CC(C)N2CC3)c1 (stereo not drawn)  SILAC ratio (Bone marrow stromal antigen 2 (Homo sapiens, UniProt Q10589); biotinylated probe pull-down, measured: BST2; 10 µM probe; relative to: heavy over light): 1.79
Nc1nc(SCc2ccc(Cl)cc2)nn1S(=O)(=O)c1ccc(-c2ccccc2)cc1  probe labeling increase (Lysophospholipase-like protein 1; enzyme activity, activator, gel-based ABPP; purified protein; concentration not given, together with: FP-rhodamine; relative to: DMSO): 1.3 fold
N#CN1CC[C@H](C(=O)Nc2nc3c(s2)CN(C(=O)Cn2cc(CNC(=O)CCCC[C@@H]4SC[C@@H]5NC(=O)N[C@@H]54)nn2)CC3)C1  iBAQ abundance (Tubulin alpha-1B chain (Homo sapiens, UniProt P68363); probe binding, affinity probe, neutravidin pull-down LC-MS/MS; HEK293T, cell lysate; 5 µM, 1 h, mean of three replicates, unit not given; higher = more pulled down): 4.27e+08
